Assay results from different studies.
Numbered parts are unrelated; each lists some results of a single study. Substitutions count along the parent as printed.
UniProt Q9UQM7, sequence (whole entry, looked up): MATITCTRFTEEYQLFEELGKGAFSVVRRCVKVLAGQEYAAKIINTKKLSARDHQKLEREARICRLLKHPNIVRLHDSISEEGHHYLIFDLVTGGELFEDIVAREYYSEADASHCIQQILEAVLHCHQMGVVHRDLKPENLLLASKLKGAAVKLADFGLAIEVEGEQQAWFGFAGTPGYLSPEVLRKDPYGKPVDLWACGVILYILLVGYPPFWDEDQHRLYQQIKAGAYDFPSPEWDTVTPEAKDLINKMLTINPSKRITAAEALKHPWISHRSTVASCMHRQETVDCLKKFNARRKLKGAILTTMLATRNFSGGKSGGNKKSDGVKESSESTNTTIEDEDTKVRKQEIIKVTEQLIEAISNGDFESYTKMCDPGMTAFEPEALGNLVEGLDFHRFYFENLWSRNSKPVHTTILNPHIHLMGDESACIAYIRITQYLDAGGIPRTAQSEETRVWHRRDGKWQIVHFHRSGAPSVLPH

Sample 1 — read-out: binding; technique: phage display NGS; form: peptide; tested at: concentration not given; setting: panning round 4; baseline: input library; endpoint: enrichment fold change
Target: UDP-N-acetylglucosamine--peptide N-acetylglucosaminyltransferase 110 kDa subunit (OGT, Homo sapiens, UniProt O15294)
UniProt O15294, sequence (whole entry, looked up): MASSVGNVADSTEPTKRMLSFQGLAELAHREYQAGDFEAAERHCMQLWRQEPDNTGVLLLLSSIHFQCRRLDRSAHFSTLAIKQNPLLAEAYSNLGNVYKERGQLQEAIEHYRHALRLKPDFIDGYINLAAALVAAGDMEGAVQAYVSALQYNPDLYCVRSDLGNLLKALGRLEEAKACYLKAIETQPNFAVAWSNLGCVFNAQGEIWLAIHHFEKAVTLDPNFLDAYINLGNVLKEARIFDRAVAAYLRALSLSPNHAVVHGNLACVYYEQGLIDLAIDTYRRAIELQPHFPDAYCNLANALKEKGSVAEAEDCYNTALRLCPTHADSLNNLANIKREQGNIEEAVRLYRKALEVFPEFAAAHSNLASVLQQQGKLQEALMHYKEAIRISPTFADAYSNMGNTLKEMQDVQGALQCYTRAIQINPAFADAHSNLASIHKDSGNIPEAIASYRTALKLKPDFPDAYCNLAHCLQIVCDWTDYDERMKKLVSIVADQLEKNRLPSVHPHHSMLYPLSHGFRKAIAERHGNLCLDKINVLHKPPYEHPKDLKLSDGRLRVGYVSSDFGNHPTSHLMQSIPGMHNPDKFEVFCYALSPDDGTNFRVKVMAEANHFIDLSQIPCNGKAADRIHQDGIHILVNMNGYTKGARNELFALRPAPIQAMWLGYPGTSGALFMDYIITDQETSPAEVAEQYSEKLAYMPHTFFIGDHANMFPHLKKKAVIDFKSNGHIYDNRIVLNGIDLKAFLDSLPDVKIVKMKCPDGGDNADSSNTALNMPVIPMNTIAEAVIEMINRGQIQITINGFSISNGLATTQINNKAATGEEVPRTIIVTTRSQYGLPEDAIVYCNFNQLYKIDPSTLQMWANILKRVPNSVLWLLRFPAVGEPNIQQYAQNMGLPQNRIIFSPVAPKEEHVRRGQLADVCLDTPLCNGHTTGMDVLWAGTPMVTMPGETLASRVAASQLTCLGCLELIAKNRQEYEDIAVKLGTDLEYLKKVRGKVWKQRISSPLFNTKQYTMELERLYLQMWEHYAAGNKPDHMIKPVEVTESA
VRFPPQYQMVYKTTV: 1.51
NVVRTNFMPMYLIEI: 1.84
VEQSSPFAPQYQIQM: 1.96
NQYQPQYQILQAANR: 1.62
NQYQPQYQILYDANR: 2
QFMPSYQMQYKMADI: 2.13
ESIYKPRYQISIAYA: 1.52
APLFQPKYQINIYGQ: 2.39

Sample 2 — target: vanadate, free oxyanion; technique: microfluidic competitive inhibition; medium: in vitro, cell-free expressed; tested at: not given; reading: lower = stronger binding; endpoint: oxyanion analog dissociation constant
Setting: derived from inhibition constants, unchanged parent 676 nM
Starting sequence: PafA, mature enzyme, eGFP fusion (Elizabethkingia meningoseptica, UniProt Q9KJX5); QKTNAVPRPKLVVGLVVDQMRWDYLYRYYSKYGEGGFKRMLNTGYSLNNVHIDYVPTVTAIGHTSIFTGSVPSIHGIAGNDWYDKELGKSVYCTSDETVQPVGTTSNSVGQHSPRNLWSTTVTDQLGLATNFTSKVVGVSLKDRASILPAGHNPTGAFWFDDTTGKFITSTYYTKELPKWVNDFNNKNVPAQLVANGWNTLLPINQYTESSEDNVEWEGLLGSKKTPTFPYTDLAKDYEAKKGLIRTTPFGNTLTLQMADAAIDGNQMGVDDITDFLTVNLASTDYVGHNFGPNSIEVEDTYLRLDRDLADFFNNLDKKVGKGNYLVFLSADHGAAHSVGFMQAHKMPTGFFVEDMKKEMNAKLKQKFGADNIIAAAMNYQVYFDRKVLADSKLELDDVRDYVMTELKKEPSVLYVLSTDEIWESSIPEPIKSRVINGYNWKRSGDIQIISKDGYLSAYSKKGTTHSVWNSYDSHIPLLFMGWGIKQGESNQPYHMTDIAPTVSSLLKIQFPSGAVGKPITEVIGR
V403G: 973 nM
V413A: 743 nM
M356V: 777 nM
E406V: 738 nM
N324V: 863 nM
T133G: 600 nM
G165V: 1.59 µM
W483G: 1.02 µM

Single results of other studies
COc1cc(=O)n(-c2ccccc2)cc1C(=O)N1CCC2(CC1)OCCO2 — remaining compound (human, microsomes or S9; 2 µM, 0.5 h): 91.7%
CC(C)=CCC[C@](C)(O)[C@H]1CC[C@]2(C)[C@@H]1[C@H](O)C[C@@H]1[C@@]3(C)CC[C@H](O[C@@H]4O[C@H](CO)[C@@H](O)[C@H](O)[C@H]4O)C(C)(C)[C@@H]3CC[C@]12C — inhibition (CAMK2A (Homo sapiens, UniProt Q9UQM7); enzyme activity, inhibitor; 10 µM): -47%
CCS(=O)(=O)c1cc2cc(C[C@](O)(CC(C)(C)c3ccc(F)cc3C(N)=O)C(F)(F)F)[nH]c2cn1 — remaining binding (CRK2 (Plasmodium falciparum, UniProt P61075); cell-free assay, competition with immobilised ligand; 1 µM): 100%

Repeated from above (single results of other studies):
COc1cc(=O)n(-c2ccccc2)cc1C(=O)N1CCC2(CC1)OCCO2 — remaining compound (human, microsomes or S9; 2 µM, 0.5 h): 91.7%
CC(C)=CCC[C@](C)(O)[C@H]1CC[C@]2(C)[C@@H]1[C@H](O)C[C@@H]1[C@@]3(C)CC[C@H](O[C@@H]4O[C@H](CO)[C@@H](O)[C@H](O)[C@H]4O)C(C)(C)[C@@H]3CC[C@]12C — inhibition (CAMK2A (Homo sapiens, UniProt Q9UQM7); enzyme activity, inhibitor; 10 µM): -47%
CCS(=O)(=O)c1cc2cc(C[C@](O)(CC(C)(C)c3ccc(F)cc3C(N)=O)C(F)(F)F)[nH]c2cn1 — remaining binding (CRK2 (Plasmodium falciparum, UniProt P61075); cell-free assay, competition with immobilised ligand; 1 µM): 100%
